Published values gathered from unrelated publications.
Protocols differ between the studies behind these lines. Numbers after ± are the reported error.

O=c1c(OCc2ccccc2)c(-c2cccc([N+](=O)[O-])c2)oc2ccccc12 gave a blood glucose of 342 ± 4.71 mg/dL (diabetic rat; 5 mg/kg, day 7, p-nitrophenyl β-glucoside induced).
O=C1c2c(O)cc3oc4cc(O)c(O)cc4c3c2OC1Cc1ccc(O)c(O)c1 (stereo not drawn) has an EC50 of 50 µM (DPPH scavenging, absorbance).
For C[C@@H](O)[C@@H]1NC(=O)[C@H](CCCCN)NC(=O)[C@@H](Cc2ccc(NC(N)=O)cc2)NC(=O)[C@H](Cc2ccc(NC(=O)[C@@H]3CC(=O)NC(=O)N3)cc2)NC(=O)[C@H](NC(=O)[C@H](Cc2ccc(Cl)cc2)NC(=O)CN2CCN(CC(=O)O)CCN(CC(=O)O)CCN(CC(=O)O)CC2)CSSC[C@@H](C(=O)N[C@H](Cc2ccc(O)cc2)C(N)=O)NC1=O [gallium-68 labelled], the SUVpeak was 5 ± 2 (PET/CT; human neuroendocrine tumour patients, bone lesions; 60 min).
COc1ccc2c(c1)c(CC(=O)OCC(=O)c1ccccc1)c(C)n2C(=O)c1ccc(Cl)cc1 — result for “latency of nociceptive response”: 16.7 ± 1.16 s (hot plate test; BALB/c mice; 100 mg/kg, 90 min).
For CC(=O)Nc1ccc(OC(=O)CCC(=O)[O][Pt-2]23([O]C(=O)CCC(=O)Oc4ccc(NC(C)=O)cc4)([NH2+][C@@H]4CCCC[C@H]4[NH2+]2)[O]C(=O)C(=O)[O]3)cc1, the IFN-alpha level was 2.4 fold (BALB/c mouse, 4T1 tumour, tumour tissue; dose not given; baseline: PBS).
COc1ccc2c(c1OC)C(C(Cl)(Cl)Cl)N1CCc3cc4c(cc3C1=C2)OCO4 (stereo not drawn) has a triglycerides of 105 ± 4.01 mg/dL (rat, STZ-induced diabetic, serum; oral, 12 mg/kg, day 28).
With O=C1c2c(O)cc3oc4cc(O)c(O)cc4c3c2OC1Cc1ccc(O)cc1 (stereo not drawn) the EC50 was 100 µM (DPPH scavenging, absorbance).
With COc1ccc(C2CC(c3ccc(C)cc3)=Nc3ccccc3S2)cc1 (stereo not drawn) the blood glucose was 380 ± 5.08 mg/dL (Wistar rat, STZ-induced diabetes; oral, 20 mg/kg once daily, day 1).
Under “second-order rate constant”, O=C(NCC1OC2CCC=CCCC2O1)c1ccc([18F])nc1 (stereo not drawn) is recorded as 10600 M⁻¹ s⁻¹ (MeOH/water 50:50; 37 °C, together with: methyltetrazine-NHS 0.05 mM).
The EC50 of O=C1CC(c2ccc(O)cc2)Oc2c1c(O)cc1oc3cc(O)c(O)cc3c21 (racemic) is reported as 170 µM (DPPH scavenging, absorbance).
Under “optimal tumour volume T/C”, CCCCCCCCC=CCCCCCCCC(=O)OCC1OC(n2ccc(N)nc2=O)C(F)(F)C1O (stereo not drawn) is recorded as 5% (female nude mouse, colon xenograft, patient-derived colon tumour; oral, 150 mg/kg, dosed days 1 and 8; baseline: saline control).
For CC(=O)[O-].O.[Cu+2].[O-]c1ccc(Br)cc1C=NCCN1CCOCC1, the inhibition was 64.2% (nitric oxide scavenging; 240 µM).
COc1ccc2c(c1)c(CC(=O)OCOC(C)=O)c(C)n2C(=O)c1ccc(Cl)cc1 — result for “latency of nociceptive response”: 16.1 ± 1.71 s (hot plate test; BALB/c mice; 75 mg/kg, 60 min).
COc1ccc(C2CC(c3ccc(C)cc3)=Nc3ccccc3S2)cc1OC (stereo not drawn) gave a blood glucose of 109 ± 4.56 mg/dL (rat, normal, overnight fasted; oral, 20 mg/kg, 60 min, oral glucose tolerance test, together with: glucose 3 g/kg oral).
C=C(c1cc(F)c(C(=O)O)c(F)c1)c1cc2c(cc1C)C(C)(C)CCC2(C)C: “log2 fold change” -0.54 (RNA sequencing, refers to: Mpeg1; rat, brain; dose not given, 24 h; baseline: vehicle).
For C[C@H](NC(=O)COC(=O)[C@H](C)NC(=O)CO)C(=O)O, “depolymerization rate constant” read 5.86 h⁻¹ (water; pH 7, 37 °C).
Under “effect size d”, CN(C)C(=O)c1ccnc(N2Cc3cn(Cc4ccc(F)cc4F)nc3C2)n1 is recorded as 0.89 (refers to: Olig2+ cell number; cuprizone-fed mice, corpus callosum; dose not given, unit not given; baseline: vehicle).
O=C(O)[C@H]1O[C@@H](Oc2c(-c3ccc(O)c(O)c3)oc3cc(O)cc(O)c3c2=O)[C@H](O)[C@@H](O)[C@@H]1O has an IC50 of 58.9 µg/mL (ABTS scavenging).
O=c1c(OCc2ccccc2)c(-c2ccc([N+](=O)[O-])cc2)oc2ccccc12 has a blood glucose of 328 ± 4.54 mg/dL (diabetic rat; 7.5 mg/kg, day 7, p-nitrophenyl β-glucoside induced).
CCCCCCCCCn1cc(C(N)(CO)CO)nn1: “anti-inflammatory mRNA levels” “increased” (refers to: Il-4, Tgf-β, Arg1; APP/PS1 mouse; dose not given; baseline: PBS).
CN(C)c1ccc(-c2oc3ccccc3c(=O)c2OCc2ccccc2)cc1 gave a blood glucose of 325 ± 4.89 mg/dL (diabetic rat; 7.5 mg/kg, day 7, p-nitrophenyl β-glucoside induced).
CC(C)(O)c1ccc(N2Cc3c(ccnc3-c3ccc(F)cc3OCC(F)(F)F)C2=O)cc1 — result for ganglioside level: “decreased” (refers to: GM2, GM1; Gba D409V knock-in mouse, Gaucher model, cerebral cortex; 10 or 30 mg/kg, 2 months).
Under “TSPO specific binding”, CC[C@@H](C)N([11CH3])C(=O)c1nc(-c2ccc(Cl)cc2)c2ccccc2n1 is recorded as 89% (PET from VT/fP; rhesus monkey, cerebellum; dose not given).
CC[C@H]1[C@@H](O)[C@@H]2[C@H](CC[C@]3(C)[C@@H]([C@H](C)CCOS(=O)(=O)[O-])CC[C@@H]23)[C@@]2(C)CC[C@@H](O)C[C@@H]12.[Na+] gave a fractional area of 8.5 ± 0.6% (immunohistochemistry, refers to: collagen 1a1; ob/ob NASH mouse model, liver; 3.0 mg/kg, 16 weeks).
CCOc1ccc(C[C@@H]2NC(=O)[C@@H](N)CSSC[C@@H](C(=O)N3CCC[C@H]3C(=O)N[C@@H](CC(C)C)C(=O)NCC(N)=O)NC(=O)[C@H](CC(N)=O)NC(=O)[C@H](CCC(N)=O)NC(=O)[C@H]([C@@H](C)CC)NC2=O)cc1 gave a pA2 of 7.22 (antagonist; Bufo marinus urinary bladder; together with: [2-O-methyltyrosine]-oxytocin).
Cc1ccc(-c2oc3ccccc3c(=O)c2OCc2ccccc2)cc1 has a blood glucose of 333 ± 4.89 mg/dL (diabetic rat; 5 mg/kg, day 7, p-nitrophenyl β-glucoside induced).
COC(=O)C(Cc1c[nH]cn1)NC(=O)C1(C)C(O)CCC2(C)C1CCC1(C)C2CC=C2C3C(C)C(C)CCC3(C)CCC21C (stereo not drawn) — result for “clinical activity score”: 2.11 ± 0.5 (rat TNBS-induced colitis; oral, dose not given, day 8; direction not given).
Under “inhibition in vivo”, Fc1ccc(CSc2nnc(C34CC5CC(CC(C5)C3)C4)n2-c2ccccc2)cc1 is recorded as 17.4% (paw oedema; rat; intraperitoneal, 20 mg/kg).
With COc1cc(CN2CCN(c3ccc(C)cc3)CC2)c2cc3[n+](cc2c1O)CCc1cc2c(cc1-3)OCO2 the IC50 was 13 µg/mL (ABTS scavenging, absorbance; 10 min).
Cc1ccc(-c2nc3cc(F)ccc3[nH]2)o1 has an IC50 of 1.37 µM (ABTS scavenging, absorbance).
With O=c1c(OCc2ccccc2)c(-c2ccc(Cl)cc2)oc2ccccc12 the blood glucose was 140 ± 4.64 mg/dL (diabetic rat; 7.5 mg/kg, day 28, p-nitrophenyl β-glucoside induced).
CSCC[C@@H]1NC(=O)[C@H](C)NC(=O)[C@H]([C@@H](C)O)NC(=O)CNC(=O)[C@H](CC(C)C)NC(=O)[C@H](CCC(N)=O)NC(=O)[C@H](CCCNC(=N)N)NC(=O)[C@@H]2CSSC[C@@H]3NC(=O)[C@@H]4CCCN4C(=O)[C@H](C(C)C)NC(=O)[C@H](CCC(N)=O)NC(=O)[C@H](CCC(N)=O)NC(=O)CNC(=O)[C@H](CC(C)C)NC(=O)[C@@H]4CSSC[C@H](NC(=O)[C@H]([C@@H](C)O)NC(=O)[C@H](C)NC(=O)[C@H](CSSC[C@@H](C(=O)N[C@@H](CO)C(=O)N[C@@H](CCC(N)=O)C(=O)N[C@H](C(N)=O)[C@@H](C)O)NC(=O)[C@@H]5CCCN5C(=O)[C@H](CC(N)=O)NC1=O)NC(=O)[C@@H]1CCCN1C(=O)[C@H](CC(=O)O)NC(=O)[C@H](CSSC[C@H](NC(=O)[C@H](CCCNC(=N)N)NC(=O)[C@H](CCCNC(=N)N)NC(=O)[C@H](CO)NC(=O)[C@@H](N)CO)C(=O)N[C@@H](C(C)C)C(=O)N[C@@H](CCCNC(=N)N)C(=O)N[C@@H](CC(C)C)C(=O)N[C@@H](Cc1c[nH]cn1)C(=O)N[C@@H](CCC(=O)O)C(=O)N[C@@H](CO)C(=O)N4)NC3=O)C(=O)N[C@@H](Cc1ccc(O)cc1)C(=O)N[C@H]1CSSC[C@H](NC(=O)[C@H](Cc3ccccc3)NC(=O)[C@H](C)NC(=O)[C@H](CC(N)=O)NC(=O)[C@H](Cc3ccccc3)NC(=O)[C@H](Cc3ccccc3)NC(=O)[C@H](CCCNC(=N)N)NC1=O)C(=O)N[C@@H](Cc1ccc(O)cc1)C(=O)N2 has a food intake of 39.8 ± 4.6 % above saline (Long-Evans rat, male; intracerebroventricular, 1.0 nmol, day 3, non-cumulative; baseline: saline).
Cc1ccc(=O)n(-c2ccc(O)cc2)c1 — result for “hepatic ballooning and inflammation”: “decreased” (H&E staining; BALB/c mouse, CCl4 liver injury, liver; oral, 1 mmol/kg daily, 4 weeks).
COC(=O)[C@H](CSSC(C)(C)[C@H](NC(=O)[C@H](CCC(=O)NC[C@H](O)[C@@H](O)[C@H](O)[C@H](O)CO)NC(=O)[C@H](CCC(=O)O)NC(=O)[C@H](CCC(=O)NC[C@H](O)[C@@H](O)[C@H](O)[C@H](O)CO)NC(=O)[C@H](CCC(=O)O)NC(=O)[C@H](CCC(=O)NC[C@H](O)[C@@H](O)[C@H](O)[C@H](O)CO)NC(=O)CC[C@H](NC(=O)c1ccc(NCc2cnc3nc(N)[nH]c(=O)c3n2)cc1)C(=O)O)C(=O)O)NC(=O)CC[C@H](NC(=O)c1ccc(NCc2cnc3nc(N)nc(N)c3n2)cc1)C(=O)O — result for “CD172+ CD43− monocyte effect”: “decreased” (flow cytometry; Lewis rat, adjuvant-induced arthritis, blood; subcutaneous, 1000 nmol/kg twice weekly × 1).
C=C(c1ccc(C(=O)O)c(F)c1)c1cc2c(cc1C)C(C)(C)C=CC2(C)C — result for “log2 fold change”: 2.22 (RNA sequencing, refers to: Cga mRNA; rat, brain; dose not given, 24 h, single dose; baseline: vehicle).
For Cc1nc(C)c(C=[N+]([O-])C(C)(C)C)nc1C, the fluorescence intensity was 295 ± 16.4% (immunofluorescence, refers to: 4-HNE; MPTP mouse model, substantia nigra; 30 mg/kg; baseline: sham).

A few entries again:
CC[C@H]1[C@@H](O)[C@@H]2[C@H](CC[C@]3(C)[C@@H]([C@H](C)CCOS(=O)(=O)[O-])CC[C@@H]23)[C@@]2(C)CC[C@@H](O)C[C@@H]12.[Na+] gave a fractional area of 8.5 ± 0.6% (immunohistochemistry, refers to: collagen 1a1; ob/ob NASH mouse model, liver; 3.0 mg/kg, 16 weeks).
CCOc1ccc(C[C@@H]2NC(=O)[C@@H](N)CSSC[C@@H](C(=O)N3CCC[C@H]3C(=O)N[C@@H](CC(C)C)C(=O)NCC(N)=O)NC(=O)[C@H](CC(N)=O)NC(=O)[C@H](CCC(N)=O)NC(=O)[C@H]([C@@H](C)CC)NC2=O)cc1 gave a pA2 of 7.22 (antagonist; Bufo marinus urinary bladder; together with: [2-O-methyltyrosine]-oxytocin).
Cc1ccc(-c2oc3ccccc3c(=O)c2OCc2ccccc2)cc1 has a blood glucose of 333 ± 4.89 mg/dL (diabetic rat; 5 mg/kg, day 7, p-nitrophenyl β-glucoside induced).
